Measured values gathered from unrelated publications.
Numbered parts are unrelated; each lists some results of a single study. Changes are numbered by the printed parent chain.

Series 1
Target: ABI1, truncated, D143A, DHFR fusion (Arabidopsis thaliana)
Method: DHFR PCA, deep sequencing
Medium: yeast
Notes: methotrexate growth selection, single substitutions
Added: (+)-ABA 17 µM
Reference: wild-type fitted maximum
Direction: higher = stronger binding
Starting sequence: PYL1, truncated, DHFR fusion (Arabidopsis thaliana); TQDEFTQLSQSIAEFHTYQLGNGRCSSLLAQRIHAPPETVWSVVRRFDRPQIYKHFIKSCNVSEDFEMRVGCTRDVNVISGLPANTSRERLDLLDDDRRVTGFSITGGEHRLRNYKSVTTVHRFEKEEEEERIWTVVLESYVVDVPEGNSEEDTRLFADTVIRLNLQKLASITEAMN
| Change | relative binding score |
| --- | --- |
| Q2G | 69.5% |
| L8D | -12.9% |
| S150D | 70% |
| H122R | 2.03% |
| L91S | -3.16% |

Series 2
Target: Sal-like protein 4, full length isoform B (SALL4, Homo sapiens, UniProt Q9UJQ4-2, residues 1-616)
Method: universal PBM
Molecule type: double-stranded DNA, one strand shown
Medium: in vitro
Concentration: not given
Notes: 8-mer, flanks averaged, mean of replicates
Direction: higher = stronger binding
| Sequence | E-score |
| --- | --- |
| TATTAGCA | 0.279 |
| CTCTAGGC | -0.231 |
| CTCTGACA | 0.0607 |
| CGACAACA | -0.139 |
| GTTCTTTA | 0.122 |
| CAAAAAGA | 0.0794 |
| CTCTTTCC | -0.288 |
| CGGAAAAG | -0.132 |
| CTAACAAC | -0.00414 |

Series 3
Target: CCNB3, cyclin fold, Cln2 fusion (human)
Method: yeast growth competition, sequencing
Medium: yeast
Notes: weak parent motif
Reference: not given
Direction: higher = stronger binding
Starting sequence: WEE1 docking peptide (human); HKTFRKLRLFDTP
| Change | normalised enrichment score |
| --- | --- |
| HKTFRKKRLFDTP [L7K] | -0.455 |
| HKTFRKLRLDDTP [F10D] | -0.37 |
| HKTFRKLRSFDTP [L9S] | 0.41 |
| HKTFRKLRLFSTP [D11S] | -0.0319 |
| HKTFRKLVLFDTP [R8V] | 0.444 |
| VKTFRKLRLFDTP [H1V] | -0.812 |

Single results of other studies
| Molecule | target | assay | test system | setting | how to read | quantity | result |
| --- | --- | --- | --- | --- | --- | --- | --- |
| PhoQ, residues 284 288 289 292 302 303 ASSHFY | PhoP, residues 12 14 15 18 19 LYHSL (Escherichia coli, UniProt P23836) | Sort-seq, refers to: YFP reporter | E. coli | PhoQ-PhoP variant library, added: 10 µM Mg2+ | reference: high Mg2+ state, higher = stronger signaling | fold induction | 19.6 |

Excerpt of the above (series 2):
| Sequence | E-score |
| --- | --- |
| CTCTAGGC | -0.231 |
| CTCTGACA | 0.0607 |
